{"data": "Results gathered from unrelated publications", "note": "Every numbered part comes from another study and shows a few of its results, in no order. Substitutions count along the parent as printed.", "UniProt Q96LR5, sequence (whole entry, looked up)": "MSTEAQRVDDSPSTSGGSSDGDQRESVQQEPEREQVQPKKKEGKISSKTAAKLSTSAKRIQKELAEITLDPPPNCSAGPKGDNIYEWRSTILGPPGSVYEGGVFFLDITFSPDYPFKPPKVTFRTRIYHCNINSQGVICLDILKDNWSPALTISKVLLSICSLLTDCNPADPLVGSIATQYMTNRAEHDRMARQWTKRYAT", "UniProt P61077, sequence (whole entry, looked up)": "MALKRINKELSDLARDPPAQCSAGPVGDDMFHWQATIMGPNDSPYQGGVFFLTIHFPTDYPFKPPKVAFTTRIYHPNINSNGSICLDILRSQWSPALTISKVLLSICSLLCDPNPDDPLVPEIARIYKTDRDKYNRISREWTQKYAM", "UniProt Q15819, sequence (whole entry, looked up)": "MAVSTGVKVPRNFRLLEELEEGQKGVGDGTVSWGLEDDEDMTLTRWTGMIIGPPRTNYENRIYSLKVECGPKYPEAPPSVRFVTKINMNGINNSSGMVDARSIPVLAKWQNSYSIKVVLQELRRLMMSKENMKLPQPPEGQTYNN", "UniProt O14933, sequence (whole entry, looked up)": "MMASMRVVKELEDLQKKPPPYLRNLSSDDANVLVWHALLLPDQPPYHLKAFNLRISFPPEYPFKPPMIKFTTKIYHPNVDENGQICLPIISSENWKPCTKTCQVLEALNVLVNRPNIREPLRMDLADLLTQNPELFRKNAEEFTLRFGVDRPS", "UniProt Q5VVX9, sequence (whole entry, looked up)": "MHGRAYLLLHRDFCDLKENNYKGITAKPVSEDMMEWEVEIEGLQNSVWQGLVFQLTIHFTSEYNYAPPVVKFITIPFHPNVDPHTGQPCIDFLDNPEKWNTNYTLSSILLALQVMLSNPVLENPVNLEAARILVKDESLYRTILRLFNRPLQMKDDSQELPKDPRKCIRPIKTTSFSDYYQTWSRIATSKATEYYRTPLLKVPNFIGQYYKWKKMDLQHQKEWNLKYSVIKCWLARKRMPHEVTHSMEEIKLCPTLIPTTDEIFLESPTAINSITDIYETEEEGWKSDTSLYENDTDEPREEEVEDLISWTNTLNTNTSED", "UniProt P60604, sequence (whole entry, looked up)": "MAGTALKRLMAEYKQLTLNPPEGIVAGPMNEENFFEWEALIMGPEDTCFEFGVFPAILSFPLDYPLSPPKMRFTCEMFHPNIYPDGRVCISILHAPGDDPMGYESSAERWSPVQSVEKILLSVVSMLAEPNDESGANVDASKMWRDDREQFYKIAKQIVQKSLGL", "UniProt P49427, sequence (whole entry, looked up)": "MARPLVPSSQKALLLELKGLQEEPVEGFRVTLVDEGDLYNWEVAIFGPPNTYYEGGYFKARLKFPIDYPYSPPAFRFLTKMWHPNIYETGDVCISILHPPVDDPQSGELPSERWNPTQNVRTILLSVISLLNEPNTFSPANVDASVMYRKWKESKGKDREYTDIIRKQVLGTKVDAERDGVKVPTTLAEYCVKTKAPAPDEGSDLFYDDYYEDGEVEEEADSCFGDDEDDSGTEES"}
{"data": "Sample 1", "target": "Histone acetyltransferase KAT6A, winged helix 2, GST fusion (KAT6A, Homo sapiens, UniProt Q92794, residues 85-181)", "method": "protein binding microarray", "molecule type": "double-stranded DNA, one strand shown", "matrix": "in vitro", "concentration": "not given", "notes": "8-mer, flanks averaged, mean of 2 arrays, mostly near background", "reference": "not given", "reading": "higher = stronger binding", "Target sequence (chain)": "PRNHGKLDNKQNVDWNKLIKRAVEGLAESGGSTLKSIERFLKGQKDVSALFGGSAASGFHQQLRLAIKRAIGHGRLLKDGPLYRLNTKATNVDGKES"}
{"Oligonucleotide": "GGAGGGAA", "E-score": 0.108}
{"Oligonucleotide": "CCAACGCG", "E-score": 0.129}
{"Oligonucleotide": "AACACGGT", "E-score": -0.0386}
{"Oligonucleotide": "CATGATAC", "E-score": 0.0344}
{"Oligonucleotide": "ACTCTAAA", "E-score": -0.0512}
{"Oligonucleotide": "ATGTTCCC", "E-score": -0.0443}
{"Oligonucleotide": "AGGATTCC", "E-score": -0.127}
{"Oligonucleotide": "CTGTACCC", "E-score": 0.108}
{"Oligonucleotide": "ACAACTCC", "E-score": -0.0579}
{"Oligonucleotide": "AGTGAATG", "E-score": 0.0111}
{"Oligonucleotide": "GTCAGTGA", "E-score": 0.0925}
{"Oligonucleotide": "GAAATCCC", "E-score": 0.0763}
{"Oligonucleotide": "GTTACGCA", "E-score": -0.0683}
{"Oligonucleotide": "CGCACCTA", "E-score": 0.0404}
{"Oligonucleotide": "CATGACAC", "E-score": 0.0725}
{"Oligonucleotide": "AACTACCT", "E-score": -0.127}
{"data": "Sample 2", "target": "Max dimerization protein 1, bHLH-zipper, MAX partner unstated (MXD1, Homo sapiens, UniProt Q05195, residues 56-136)", "method": "protein-binding microarray", "molecule type": "double-stranded DNA, one strand shown", "matrix": "in vitro", "concentration": "not given", "notes": "k-mer, scored over probes, only values ≥0.25", "reading": "higher = stronger binding", "Target sequence (chain)": "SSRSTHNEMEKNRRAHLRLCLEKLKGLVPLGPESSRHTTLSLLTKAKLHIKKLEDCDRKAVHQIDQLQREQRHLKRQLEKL"}
{"Oligonucleotide": "CCCATCCC", "E-score": 0.266}
{"Oligonucleotide": "CATGCTCG", "E-score": 0.337}
{"Oligonucleotide": "CATGTGAC", "E-score": 0.447}
{"Oligonucleotide": "ATTGCATG", "E-score": 0.253}
{"Oligonucleotide": "GCATGCGC", "E-score": 0.401}
{"Oligonucleotide": "AAAACCAC", "E-score": 0.282}
{"Oligonucleotide": "GTGGGGGA", "E-score": 0.308}
{"Oligonucleotide": "CTGCACGC", "E-score": 0.357}
{"Oligonucleotide": "CCTCACGC", "E-score": 0.294}
{"Oligonucleotide": "ACACACGT", "E-score": 0.375}
{"Oligonucleotide": "CGTGCGAA", "E-score": 0.309}
{"Oligonucleotide": "CTCACGCA", "E-score": 0.263}
{"Oligonucleotide": "GCATGCCC", "E-score": 0.404}
{"Oligonucleotide": "GGGGACCA", "E-score": 0.265}
{"Oligonucleotide": "CGCCCACC", "E-score": 0.257}
{"Oligonucleotide": "AAGCACGA", "E-score": 0.305}
{"Oligonucleotide": "CGTGTCAA", "E-score": 0.301}
{"Oligonucleotide": "CATGTTCA", "E-score": 0.254}
{"Oligonucleotide": "ACGACACG", "E-score": 0.327}
{"Oligonucleotide": "AAACACGC", "E-score": 0.397}
{"data": "Sample 3", "Molecule": "B1 (RNF2 RING domain)", "method": "yeast two-hybrid", "matrix": "yeast", "notes": "mostly zero background", "reference": "not given", "reading": "higher = stronger interaction", "B1": "RNF2 RING domain (UniProt Q99496); chain SPRSLHSELMCPICLDMLKNTMTTKECLHRFCADCIITALRSGNKECPTCRKKLVSKRSLR"}
{"target": "UBE2E2 UBC core domain (UniProt Q96LR5)", "lacZ reporter activity": 0}
{"target": "UBE2V2 UBC core domain (UniProt Q15819)", "lacZ reporter activity": 0}
{"target": "UBE2G2 UBC core domain (UniProt P60604)", "lacZ reporter activity": 0}
{"target": "UBE2L6 UBC core domain (UniProt O14933)", "lacZ reporter activity": 0}
{"target": "CDC34 UBC core domain (UniProt P49427)", "lacZ reporter activity": 0}
{"target": "UBE2U UBC core domain (UniProt Q5VVX9)", "lacZ reporter activity": 7770}
{"target": "UBE2D3 UBC core domain (UniProt P61077)", "lacZ reporter activity": 0}
{"data": "Sample 4", "target": "CCNA2, cyclin fold, Cln2 fusion (human)", "method": "yeast growth competition, sequencing", "matrix": "yeast", "notes": "strong parent motif", "reference": "not given", "reading": "higher = stronger binding", "starting sequence": "SCAPER docking peptide (human); SNARRSLNFGGST"}
{"Variant": "S12Y", "normalised enrichment score": 6.26}
{"Variant": "R4G", "normalised enrichment score": 0.632}
{"Variant": "F9C", "normalised enrichment score": 0.537}
{"Variant": "A3M", "normalised enrichment score": 2.89}
{"Variant": "N8D", "normalised enrichment score": 5.78}
{"Variant": "S12N", "normalised enrichment score": 6.75}
{"Variant": "T13L", "normalised enrichment score": 6.49}
{"Variant": "R4H", "normalised enrichment score": 2.83}
{"Variant": "T13K", "normalised enrichment score": 6.73}
{"Variant": "G11K", "normalised enrichment score": 7.04}
{"Variant": "S6C", "normalised enrichment score": 6.2}
{"Variant": "A3I", "normalised enrichment score": 4.66}
{"Variant": "A3Y", "normalised enrichment score": 3.87}
{"Variant": "L7N", "normalised enrichment score": 0.812}
{"Variant": "T13Q", "normalised enrichment score": 6.17}
{"Variant": "L7P", "normalised enrichment score": 0.678}
{"Variant": "S6G", "normalised enrichment score": 4.85}
{"Variant": "N8Y", "normalised enrichment score": 5.76}
{"Variant": "S6F", "normalised enrichment score": 6.16}
{"Variant": "N2T", "normalised enrichment score": 6.06}
{"Variant": "F9S", "normalised enrichment score": 0.583}
{"Variant": "N8T", "normalised enrichment score": 5.06}
{"Variant": "R5K F9L", "normalised enrichment score": 1.34}
{"Variant": "A3H", "normalised enrichment score": 1.68}
{"Variant": "T13I", "normalised enrichment score": 5.96}
{"data": "Sample 5", "target": "Interferon regulatory factor 7, full length, phosphomimetic (IRF7, Homo sapiens, UniProt Q92985, residues 1-503, S101K/S471D/S472D/S475D/S476D/S477D/S483D/S484D/S487D)", "method": "protein-binding microarray", "molecule type": "double-stranded DNA, one strand shown", "matrix": "in vitro", "concentration": "250 nM", "notes": "60-bp whole probe", "together with": "salmon DNA 0.4 mg/ml", "reference": "random background probes", "reading": "higher = stronger binding", "all sequences stand within": "GCCTAGCAC … GTCTTGATTCGCTTGACGCTGCTG", "UniProt Q92985, sequence (whole entry, unmodified, looked up)": "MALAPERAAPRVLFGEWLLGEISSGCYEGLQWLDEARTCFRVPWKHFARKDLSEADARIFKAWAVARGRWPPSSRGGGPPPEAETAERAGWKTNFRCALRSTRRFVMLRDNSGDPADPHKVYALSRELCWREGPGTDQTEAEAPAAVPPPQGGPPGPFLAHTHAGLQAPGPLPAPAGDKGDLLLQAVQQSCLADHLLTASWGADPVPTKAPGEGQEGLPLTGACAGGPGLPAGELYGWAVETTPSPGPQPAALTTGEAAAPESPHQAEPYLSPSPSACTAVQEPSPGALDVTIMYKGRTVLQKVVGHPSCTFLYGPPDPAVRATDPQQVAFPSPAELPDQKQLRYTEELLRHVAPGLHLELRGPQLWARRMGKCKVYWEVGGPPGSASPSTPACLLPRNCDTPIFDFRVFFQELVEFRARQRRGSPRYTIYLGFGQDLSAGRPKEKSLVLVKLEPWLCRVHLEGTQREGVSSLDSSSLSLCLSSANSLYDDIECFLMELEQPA"}
{"Oligonucleotide": "GTCACATTGCACAATCTTAATGTGCTA", "log fluorescence [z-score]": 0.504}
{"Oligonucleotide": "GTGACTCTGAACCTTCAGCTCGTGCTA", "log fluorescence [z-score]": 0.243}
{"Oligonucleotide": "TCATTTACCACATTCTCACTGTGCTAG", "log fluorescence [z-score]": 2.12}
{"Oligonucleotide": "GACGATTTCGGATTTCGAGACGTGCTA", "log fluorescence [z-score]": 1.79}
{"Oligonucleotide": "GCGATCCTCTCACCTCAGCCTGTGCTA", "log fluorescence [z-score]": -0.0555}
{"Oligonucleotide": "GACGGACAGCTACTGCTGACGTGCTAG", "log fluorescence [z-score]": -0.557}
{"Oligonucleotide": "TTAGGATTCGACTTTCGGTTAGTGCTA", "log fluorescence [z-score]": 4.89}
{"Oligonucleotide": "TTAGGACTGGGGTTTAGGTTAGTGCTA", "log fluorescence [z-score]": -0.572}
{"Oligonucleotide": "TTAGGACTGGGGTTCGGTTAGTGCTAG", "log fluorescence [z-score]": 1.01}
{"Oligonucleotide": "TTTGAACTGAGACTGGATTAGTGCTAG", "log fluorescence [z-score]": -0.155}
{"Oligonucleotide": "TTAGATTTCGGGTTGCGATTAGTGCTA", "log fluorescence [z-score]": 3.11}
{"Oligonucleotide": "ATTTGCTTCAGGTTTACCAGAGTGCTA", "log fluorescence [z-score]": 0.715}
{"Oligonucleotide": "GAGGATATCAGTCTCGAGACGTGCTAG", "log fluorescence [z-score]": -0.0346}
{"Oligonucleotide": "GACGATTCCACTTTCGAGACGTGCTAG", "log fluorescence [z-score]": 1.64}
{"Oligonucleotide": "TTAGATTCCAGTATCGATTAGTGCTAG", "log fluorescence [z-score]": 2.01}
{"Oligonucleotide": "TCAATTATTGTCTTCCCACTGTGCTAG", "log fluorescence [z-score]": 0.656}
{"Oligonucleotide": "GACGGACTGCACTATCGGGACGTGCTA", "log fluorescence [z-score]": -0.907}
{"Oligonucleotide": "GACGGTTTCGACACTGGGAACGTGCTA", "log fluorescence [z-score]": 4.33}
{"Oligonucleotide": "GACGGTATCGACTTTCGGCACGTGCTA", "log fluorescence [z-score]": 0.883}
{"note": "A few entries again (sample 1):"}
{"Oligonucleotide": "CCAACGCG", "E-score": 0.129}
{"Oligonucleotide": "AACACGGT", "E-score": -0.0386}
{"Oligonucleotide": "CATGATAC", "E-score": 0.0344}
{"Oligonucleotide": "ACTCTAAA", "E-score": -0.0512}
{"Oligonucleotide": "ATGTTCCC", "E-score": -0.0443}
{"Oligonucleotide": "AGGATTCC", "E-score": -0.127}
{"Oligonucleotide": "CTGTACCC", "E-score": 0.108}
{"Oligonucleotide": "ACAACTCC", "E-score": -0.0579}
{"Oligonucleotide": "AGTGAATG", "E-score": 0.0111}
{"Oligonucleotide": "GTCAGTGA", "E-score": 0.0925}
{"Oligonucleotide": "GAAATCCC", "E-score": 0.0763}
{"Oligonucleotide": "GTTACGCA", "E-score": -0.0683}
{"Oligonucleotide": "CGCACCTA", "E-score": 0.0404}
{"Oligonucleotide": "CATGACAC", "E-score": 0.0725}
